Experimental data of several laboratories.
Parts stem from different laboratories: compare values within a part only. “And” joins repeats or separate records; there may be more than shown.
Sequence of UniProt Q96BR1 (whole entry, looked up): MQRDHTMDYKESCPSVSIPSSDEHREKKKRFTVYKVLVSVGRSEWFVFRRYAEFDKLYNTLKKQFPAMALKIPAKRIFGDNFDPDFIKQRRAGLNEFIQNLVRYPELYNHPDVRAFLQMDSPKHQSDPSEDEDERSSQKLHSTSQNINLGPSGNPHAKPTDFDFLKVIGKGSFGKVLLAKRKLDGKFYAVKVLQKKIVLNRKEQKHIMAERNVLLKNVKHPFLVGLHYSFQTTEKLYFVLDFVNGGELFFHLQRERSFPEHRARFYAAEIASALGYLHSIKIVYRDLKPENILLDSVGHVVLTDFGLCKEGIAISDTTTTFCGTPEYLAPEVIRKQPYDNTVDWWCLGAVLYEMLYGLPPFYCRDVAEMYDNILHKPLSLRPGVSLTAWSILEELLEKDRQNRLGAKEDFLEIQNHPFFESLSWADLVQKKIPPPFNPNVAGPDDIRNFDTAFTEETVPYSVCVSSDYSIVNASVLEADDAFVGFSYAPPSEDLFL
Sequence of UniProt Q8N568 (whole entry, looked up): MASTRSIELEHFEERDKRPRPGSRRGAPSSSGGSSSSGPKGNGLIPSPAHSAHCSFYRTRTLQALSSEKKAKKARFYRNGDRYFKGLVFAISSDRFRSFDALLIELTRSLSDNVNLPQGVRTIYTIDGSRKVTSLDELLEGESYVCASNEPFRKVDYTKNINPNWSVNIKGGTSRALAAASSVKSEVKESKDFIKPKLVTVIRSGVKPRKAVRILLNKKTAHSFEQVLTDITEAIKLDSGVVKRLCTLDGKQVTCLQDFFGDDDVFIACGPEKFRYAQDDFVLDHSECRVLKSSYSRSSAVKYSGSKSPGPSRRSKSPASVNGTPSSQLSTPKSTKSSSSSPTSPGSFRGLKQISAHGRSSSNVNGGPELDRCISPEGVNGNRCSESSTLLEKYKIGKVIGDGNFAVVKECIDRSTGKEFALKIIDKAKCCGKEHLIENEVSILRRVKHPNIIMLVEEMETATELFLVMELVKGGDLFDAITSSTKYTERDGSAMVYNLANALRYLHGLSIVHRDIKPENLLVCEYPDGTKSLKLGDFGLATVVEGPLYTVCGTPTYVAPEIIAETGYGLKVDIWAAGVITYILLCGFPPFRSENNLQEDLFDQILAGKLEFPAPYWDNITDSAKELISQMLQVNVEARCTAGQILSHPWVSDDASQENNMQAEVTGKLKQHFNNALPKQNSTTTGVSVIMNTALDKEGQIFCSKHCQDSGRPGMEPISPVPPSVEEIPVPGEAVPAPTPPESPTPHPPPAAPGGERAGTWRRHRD
Sequence of UniProt Q8NEB9 (whole entry, looked up): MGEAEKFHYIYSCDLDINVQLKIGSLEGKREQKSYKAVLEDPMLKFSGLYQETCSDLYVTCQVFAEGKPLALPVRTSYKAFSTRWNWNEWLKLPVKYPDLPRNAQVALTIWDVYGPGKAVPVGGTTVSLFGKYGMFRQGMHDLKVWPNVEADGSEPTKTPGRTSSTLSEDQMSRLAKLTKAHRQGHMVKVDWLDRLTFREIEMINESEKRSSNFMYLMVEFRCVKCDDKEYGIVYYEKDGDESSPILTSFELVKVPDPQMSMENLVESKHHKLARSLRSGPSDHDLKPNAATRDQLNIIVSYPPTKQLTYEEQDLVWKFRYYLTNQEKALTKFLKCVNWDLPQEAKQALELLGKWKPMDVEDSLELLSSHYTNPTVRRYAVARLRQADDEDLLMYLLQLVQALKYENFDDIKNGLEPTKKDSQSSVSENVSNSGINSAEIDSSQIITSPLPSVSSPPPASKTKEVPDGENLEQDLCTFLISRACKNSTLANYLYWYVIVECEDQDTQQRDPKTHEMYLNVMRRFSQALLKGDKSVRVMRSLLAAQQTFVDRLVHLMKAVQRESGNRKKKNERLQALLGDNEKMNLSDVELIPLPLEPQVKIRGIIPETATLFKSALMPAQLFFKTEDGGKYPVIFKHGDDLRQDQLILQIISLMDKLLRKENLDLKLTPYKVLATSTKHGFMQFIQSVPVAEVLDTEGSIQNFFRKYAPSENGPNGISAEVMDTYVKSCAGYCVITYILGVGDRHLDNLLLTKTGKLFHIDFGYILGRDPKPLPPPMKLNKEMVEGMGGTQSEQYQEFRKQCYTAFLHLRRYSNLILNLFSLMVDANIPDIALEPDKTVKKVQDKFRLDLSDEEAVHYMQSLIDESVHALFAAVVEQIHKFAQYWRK
Sequence of UniProt Q99755 (whole entry, looked up): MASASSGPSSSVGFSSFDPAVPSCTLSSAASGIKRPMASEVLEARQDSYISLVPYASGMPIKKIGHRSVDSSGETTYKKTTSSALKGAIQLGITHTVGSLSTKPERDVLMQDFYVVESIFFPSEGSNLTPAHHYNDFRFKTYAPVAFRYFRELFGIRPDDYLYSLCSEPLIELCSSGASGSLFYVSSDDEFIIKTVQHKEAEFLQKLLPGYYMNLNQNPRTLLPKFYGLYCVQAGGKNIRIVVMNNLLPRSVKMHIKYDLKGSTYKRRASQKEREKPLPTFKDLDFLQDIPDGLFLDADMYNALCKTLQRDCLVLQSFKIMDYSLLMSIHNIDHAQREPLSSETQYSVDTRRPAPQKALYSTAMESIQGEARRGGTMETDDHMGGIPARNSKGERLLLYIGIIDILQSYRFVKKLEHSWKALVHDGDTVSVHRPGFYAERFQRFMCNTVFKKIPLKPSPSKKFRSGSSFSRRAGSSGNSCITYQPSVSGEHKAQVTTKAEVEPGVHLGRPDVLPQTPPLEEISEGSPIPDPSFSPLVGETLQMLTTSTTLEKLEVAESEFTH
Sequence of UniProt Q00537 (whole entry, looked up): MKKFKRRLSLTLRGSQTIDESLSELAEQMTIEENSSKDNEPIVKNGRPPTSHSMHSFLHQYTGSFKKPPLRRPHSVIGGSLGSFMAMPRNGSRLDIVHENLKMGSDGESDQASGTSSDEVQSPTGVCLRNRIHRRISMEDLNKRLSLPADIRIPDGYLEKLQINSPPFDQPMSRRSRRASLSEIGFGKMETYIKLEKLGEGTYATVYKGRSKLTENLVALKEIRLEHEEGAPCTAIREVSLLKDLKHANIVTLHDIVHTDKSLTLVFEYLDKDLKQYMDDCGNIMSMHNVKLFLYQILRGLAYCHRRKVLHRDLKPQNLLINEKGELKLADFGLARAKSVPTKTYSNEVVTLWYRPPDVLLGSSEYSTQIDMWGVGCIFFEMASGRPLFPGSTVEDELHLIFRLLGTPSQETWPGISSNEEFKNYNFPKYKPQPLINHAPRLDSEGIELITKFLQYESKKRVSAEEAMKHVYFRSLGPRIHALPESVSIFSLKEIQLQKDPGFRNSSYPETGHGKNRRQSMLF
Sequence of UniProt Q04912 (whole entry, looked up): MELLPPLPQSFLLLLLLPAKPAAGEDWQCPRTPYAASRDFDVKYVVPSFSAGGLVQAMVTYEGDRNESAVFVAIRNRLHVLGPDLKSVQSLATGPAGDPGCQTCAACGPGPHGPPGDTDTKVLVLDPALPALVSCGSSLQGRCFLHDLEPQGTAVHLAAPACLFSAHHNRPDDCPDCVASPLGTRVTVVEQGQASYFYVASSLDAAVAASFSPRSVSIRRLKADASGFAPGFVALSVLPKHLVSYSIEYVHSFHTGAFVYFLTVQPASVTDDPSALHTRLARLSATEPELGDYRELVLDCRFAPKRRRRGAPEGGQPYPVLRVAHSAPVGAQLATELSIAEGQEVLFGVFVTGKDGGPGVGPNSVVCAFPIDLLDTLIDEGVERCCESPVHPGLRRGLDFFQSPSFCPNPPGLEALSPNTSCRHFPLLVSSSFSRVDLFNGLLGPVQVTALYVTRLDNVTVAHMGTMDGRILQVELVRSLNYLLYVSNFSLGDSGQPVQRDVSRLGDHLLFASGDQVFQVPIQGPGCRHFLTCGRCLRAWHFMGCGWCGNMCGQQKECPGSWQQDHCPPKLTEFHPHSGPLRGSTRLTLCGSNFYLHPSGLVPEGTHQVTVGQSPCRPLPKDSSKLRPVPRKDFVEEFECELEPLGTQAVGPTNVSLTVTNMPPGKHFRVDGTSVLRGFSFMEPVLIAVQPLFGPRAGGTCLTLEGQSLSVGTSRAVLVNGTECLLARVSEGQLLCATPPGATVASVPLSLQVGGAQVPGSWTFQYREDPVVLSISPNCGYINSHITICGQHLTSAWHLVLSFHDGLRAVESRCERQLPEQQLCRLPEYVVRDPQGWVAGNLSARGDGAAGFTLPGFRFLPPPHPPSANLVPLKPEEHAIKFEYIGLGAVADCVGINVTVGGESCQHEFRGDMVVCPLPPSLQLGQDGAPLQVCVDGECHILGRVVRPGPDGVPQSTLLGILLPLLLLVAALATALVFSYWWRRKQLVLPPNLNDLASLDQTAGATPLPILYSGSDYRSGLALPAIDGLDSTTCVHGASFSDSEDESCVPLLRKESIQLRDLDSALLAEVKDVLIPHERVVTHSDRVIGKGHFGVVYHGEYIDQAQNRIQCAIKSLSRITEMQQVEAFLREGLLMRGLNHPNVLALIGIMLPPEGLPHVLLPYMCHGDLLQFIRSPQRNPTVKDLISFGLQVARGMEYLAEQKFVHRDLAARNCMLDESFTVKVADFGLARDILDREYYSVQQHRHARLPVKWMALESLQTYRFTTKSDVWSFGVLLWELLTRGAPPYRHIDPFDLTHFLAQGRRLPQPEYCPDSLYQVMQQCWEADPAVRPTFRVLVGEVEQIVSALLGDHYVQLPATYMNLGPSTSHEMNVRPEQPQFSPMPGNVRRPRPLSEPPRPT

Sample 1 — dose: dose not given; relative to: vehicle; endpoint: log2 fold change
Structure (SMILES): CC(=O)N[C@@H](Cc1c[nH]c2ccccc12)C(=O)N[C@@H](CCC(=O)C=[N+]=[N-])C(=O)OC(C)C
measured: urea; mouse, EL4 tumour-bearing, EL4 tumour: 0.802
measured: 2-methylcitrate/homocitrate; mouse, EL4 tumour-bearing, EL4 tumour: 0.386
measured: 4-hydroxyglutamate; mouse, EL4 tumour-bearing, EL4 tumour: -1.14
measured: itaconate; mouse, EL4 tumour-bearing, EL4 tumour: 0.915
measured: threonine; mouse, EL4 tumour-bearing, EL4 tumour: 0.323
measured: 2'-deoxyadenosine 3'-monophosphate; mouse, EL4 tumour, tumour: 1.14
measured: UDP-N-acetylglucosamine/galactosamine; mouse, EL4 tumour-bearing, EL4 tumour: -0.265
measured: N6-methyllysine; mouse, EL4 tumour-bearing, EL4 tumour: -0.784
measured: homocysteine; mouse, EL4 tumour-bearing, EL4 tumour: -2.49

Sample 2 — read-out: cell-free assay; technique: competition with immobilised ligand; concentration: 0.1 µM; endpoint: remaining binding
SMILES: CS(=O)(=O)N1CCCC(NC(=O)[C@H](CCC2CCCCC2)NC(=O)c2ccc(CNc3ncnc4c3nnn4-c3ccccc3)cc2)C1 (some centres unmarked)
DCLK2 (Homo sapiens, UniProt Q8N568): 95%
MAP3K19 (Homo sapiens, UniProt Q56UN5): 92%
SGK3 (Homo sapiens, UniProt Q96BR1): 83%
EPHA6 (Homo sapiens, UniProt Q9UF33): 100%
HCK (Homo sapiens, UniProt P08631): 100%
PIK3CA (Homo sapiens, UniProt P42336, H1047L): 76%
FLT3 (Homo sapiens, UniProt P36888, ITD): 80%
CDK17 (Homo sapiens, UniProt Q00537): 86%
DCLK3 (Homo sapiens, UniProt Q9C098): 87%
BRSK2 (Homo sapiens, UniProt Q8IWQ3): 79%
FLT3 (Homo sapiens, UniProt P36888, N841I): 99%
PIK3C2G (Homo sapiens, UniProt O75747): 81%
TIE1 (Homo sapiens, UniProt P35590): 100%
KIT (Homo sapiens, UniProt P10721, V559D/V654A): 100%
PIK3C3 (Homo sapiens, UniProt Q8NEB9): 100%
FGFR4 (Homo sapiens, UniProt P22455): 100%
LATS2 (Homo sapiens, UniProt Q9NRM7): 100%
DAPK3 (Homo sapiens, UniProt O43293): 88%
CDC42BPB (Homo sapiens, UniProt Q9Y5S2): 90%
PIP5K1A (Homo sapiens, UniProt Q99755): 100%
MST1R (Homo sapiens, UniProt Q04912): 97%

Sample 3 — species: human; sample: microsomes or S9; concentration: 2 µM; time: 0.5 h; endpoint: remaining compound
CC1CCC(C)N1C(=O)c1cc(Br)nn1-c1ncccc1Cl (centres unmarked): 11.7%
Cc1nn(-c2cccc(Cl)c2)c(Cl)c1CN1CCn2c(n[nH]c2=O)C1: 77.8%
Cc1ccc(S(=O)(=O)NC(=NCc2ccccc2)c2ccc(F)cc2)cc1: 19.1%
CCOc1cc(CNCCc2ccc(S(N)(=O)=O)cc2)ccc1OCc1ccccc1: 55.2%
CC(OC(=O)c1cc2[nH]cnc2cc1F)c1nc2ncc(Br)cc2[nH]1 (centres unmarked): 40.4%
CC(NCc1cnc2cnccn12)c1ccc2c(c1)OCO2 (centres unmarked): 41.9%
CNS(=O)(=O)c1ccc(CCC(=O)N(Cc2ccc(F)cc2F)C2CCCC2)cc1: 6.76%
c1ccc(Cn2nnc(C3(c4ccccc4)CCOCC3)n2)cc1: 41.6%
CCC(CC)C(=O)N(C)c1ccc(-c2ccccc2)nn1: > 100%

Sample 4 — technique: Incucyte 3D growth; concentration: 30 µM; direction: higher = more growth; endpoint: spheroid area
Compound: CC(C)(C(=O)O)[C@H](NC(=O)Cc1cccc(I)c1)c1ccc2oc(=O)[nH]c2c1
PC-9; 168 h: 1.44e+09 a.u. and 1.42e+09 a.u. and 1.53e+09 a.u. and 1.45e+09 a.u. and 1.54e+09 a.u.
IPC-298; 282 h: 4.6e+07 a.u. and 2.68e+07 a.u. and 3.45e+07 a.u. and 3.43e+07 a.u. and 4.11e+07 a.u. and 2.74e+07 a.u.
A375; 192 h: 1.01e+08 a.u. and 1.11e+08 a.u. and 1.14e+08 a.u. and 1.16e+08 a.u. and 1.35e+08 a.u. and 1.18e+08 a.u.
A375; 360.52 h: 1.7e+08 a.u. and 1.66e+08 a.u. and 1.75e+08 a.u. and 1.93e+08 a.u. and 1.85e+08 a.u.
MEL-JUSO; 420.52 h: 2.96e+07 a.u. and 2.99e+07 a.u. and 3.93e+07 a.u. and 7.54e+07 a.u. and 4.66e+07 a.u. and 2.82e+07 a.u.

A few entries again (sample 2):
PIK3C3 (Homo sapiens, UniProt Q8NEB9): 100%
FGFR4 (Homo sapiens, UniProt P22455): 100%
LATS2 (Homo sapiens, UniProt Q9NRM7): 100%
DAPK3 (Homo sapiens, UniProt O43293): 88%
CDC42BPB (Homo sapiens, UniProt Q9Y5S2): 90%
PIP5K1A (Homo sapiens, UniProt Q99755): 100%
